Assay results pooled from the literature.
Every numbered part comes from another study and shows a few of its results, in no order.

Series 1 — method: protein-binding microarray; form: double-stranded DNA, one strand shown; medium: in vitro; tested at: 0.8 µM; notes: whole 60-bp probe, no competitor; reading: higher = stronger binding; measurement: fluorescence intensity
Target: Centromere-binding protein 1, full length, N-terminal tag (CBF1, Saccharomyces cerevisiae, UniProt P17106, residues 1-351)
UniProt P17106, sequence (whole entry, looked up): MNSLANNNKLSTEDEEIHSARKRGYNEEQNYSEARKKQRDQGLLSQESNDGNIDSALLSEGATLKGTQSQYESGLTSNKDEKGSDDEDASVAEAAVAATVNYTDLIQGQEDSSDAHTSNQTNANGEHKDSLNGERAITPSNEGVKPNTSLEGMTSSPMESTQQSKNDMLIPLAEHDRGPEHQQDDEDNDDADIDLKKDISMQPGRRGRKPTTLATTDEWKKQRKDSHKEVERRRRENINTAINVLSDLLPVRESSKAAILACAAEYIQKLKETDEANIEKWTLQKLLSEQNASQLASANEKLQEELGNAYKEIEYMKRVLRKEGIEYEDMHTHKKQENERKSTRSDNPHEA
TGTACGAAGCTATTATACGTGTTTATAGTAGTTAGGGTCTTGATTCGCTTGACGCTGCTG: 507 a.u.
CTACGTGTGCGTGCGCACGTCCCACACAGACAATTCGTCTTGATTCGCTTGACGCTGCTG: 752 a.u.
GAAAGCTCCCACGTGCATATCACGTGCATTATATAGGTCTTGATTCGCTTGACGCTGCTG: 25800 a.u.
CTATTTTACGCTACGCACGTCATCGATGTATACTTCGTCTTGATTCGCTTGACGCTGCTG: 517 a.u.
GAACCTCTAAATAACAGCATGATGCAACAGCTCTAGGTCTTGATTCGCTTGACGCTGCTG: 529 a.u.
GAAAGCCAACCTCATCACGATGAAGAAGATGTTTAGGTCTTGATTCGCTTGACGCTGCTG: 560 a.u.
CTATGCCTCCGCTATACCGTGATGAAGGTTAATTTCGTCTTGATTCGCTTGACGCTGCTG: 570 a.u.
CTATGCTTGAACCACCACCTGTATTGCTGGTATTTCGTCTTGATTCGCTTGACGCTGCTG: 475 a.u.
GAAAGAAAAAGTGGTCAGGTGCAAGTATACATCTAGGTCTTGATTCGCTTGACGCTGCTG: 2230 a.u.
GAAGCATGGCCTGACAGCGTGGTGTTTGATGAATAGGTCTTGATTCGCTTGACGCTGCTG: 519 a.u.
CTATTGATAGCGACGGCCGTGACCATTGCAAGATTCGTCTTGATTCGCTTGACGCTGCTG: 612 a.u.
CTAATCCTATGACAGGTGACCACAAGCCCCTCATTCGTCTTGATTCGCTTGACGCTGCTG: 2350 a.u.
TGTACGAAGCTATGTTTCCACGTTATAGTAGTTAGGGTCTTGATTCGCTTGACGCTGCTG: 559 a.u.
GAAGCCGAGTCGCTTCACGAGGGGATGAGAAAGTAGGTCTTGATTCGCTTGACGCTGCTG: 616 a.u.
GAATACTTTATATGACTGATGATGATGTAACAATAGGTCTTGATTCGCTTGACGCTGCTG: 592 a.u.
CTAAAAACAGCAGAGCACGTCCTATATATATATTTCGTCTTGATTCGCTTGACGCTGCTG: 602 a.u.
GAAACTTGAATATACCACATGAAAGCTAACCAATAGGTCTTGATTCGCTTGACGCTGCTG: 554 a.u.
CTAGACTGAACACACCACGATAAAACGTATGTTTTCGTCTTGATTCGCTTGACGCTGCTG: 526 a.u.
CTAACGTGTTGAAATCACGATACTGGCATCCGATTCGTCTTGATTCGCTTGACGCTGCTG: 870 a.u.
CTAACTCAATAGTGCCACACCATTGTTAACGAGTTCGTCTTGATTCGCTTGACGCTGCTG: 507 a.u.
GAACGTAAAGAACATCAGACCAGAAAATTTTAATAGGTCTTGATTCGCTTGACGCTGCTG: 536 a.u.
CCTAACTACTATAATCACCAGATATAGCTTCGTACAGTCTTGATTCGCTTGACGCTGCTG: 523 a.u.
CTATGATAATCACTGCACGTGACTATCATGTGATTCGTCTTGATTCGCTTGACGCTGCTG: 20300 a.u.

Series 2 — method: RNA Bind-n-Seq; form: RNA; medium: in vitro; tested at: 1 µM; notes: whole 134-nt RNA, ends assumed; with: 150 mM KCl; baseline: input library; reading: higher = stronger binding; measurement: log2 enrichment
Target: Ras GTPase-activating protein-binding protein 1, C-terminal RGG region (G3BP1, Homo sapiens, UniProt Q13283)
UniProt Q13283, sequence (whole entry, looked up): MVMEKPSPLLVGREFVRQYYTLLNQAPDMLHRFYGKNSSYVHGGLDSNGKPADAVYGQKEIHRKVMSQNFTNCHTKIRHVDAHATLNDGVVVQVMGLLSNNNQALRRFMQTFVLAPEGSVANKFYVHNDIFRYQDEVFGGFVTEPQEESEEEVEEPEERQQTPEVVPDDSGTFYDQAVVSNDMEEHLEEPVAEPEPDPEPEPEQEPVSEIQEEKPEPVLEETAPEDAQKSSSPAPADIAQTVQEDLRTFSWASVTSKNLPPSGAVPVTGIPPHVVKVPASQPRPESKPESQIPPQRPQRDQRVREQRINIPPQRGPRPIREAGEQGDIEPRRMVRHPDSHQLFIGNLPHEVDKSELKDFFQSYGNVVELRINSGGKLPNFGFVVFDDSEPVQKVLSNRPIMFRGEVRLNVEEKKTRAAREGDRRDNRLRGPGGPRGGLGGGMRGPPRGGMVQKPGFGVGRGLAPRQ
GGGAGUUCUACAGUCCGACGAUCCCUGUGCUACACAUCGUAUGUACCGAAUCGGGAAAAAAAGGGUUUUUGGGAAAAAAAGGGAAAGUAUUAUGUUACGCCGUUCGGAUCUGCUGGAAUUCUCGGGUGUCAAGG: -1.92
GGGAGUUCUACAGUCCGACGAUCCAAGUCCUGUGCUACACAUCGUAUGUACCGAAUCGGUUUUUGGUUUUUGGUUUGGAAAGUAUUAUGUUACGCCGUUCGGAUCUGCACUUCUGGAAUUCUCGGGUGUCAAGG: -1.59
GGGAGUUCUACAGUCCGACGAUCGCAGGAAGUAAAAACAAAUGGAAAUGCUUCGGAUAGUGGCAGGGGUGGGGGUUGCUAAAGAAAGGGUGGGAUGGGAGUGGGUAAAGAGUUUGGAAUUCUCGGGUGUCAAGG: 1.24
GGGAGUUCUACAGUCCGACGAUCCAAGUCCUGUGCUACACAUCGUAUGUACCGAAUCGGGAAAAAGGGAAAGGGUGGGAAAGUAUUAUGUUACGCCGUUCGGAUCUGCACUUCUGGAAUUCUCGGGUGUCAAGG: 1.8
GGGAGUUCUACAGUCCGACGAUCCCUCAAGUCCUGUGCUACACAUCGUAUGUACCGAAUCGGGGCGGGCGGCGGGAAAGUAUUAUGUUACGCCGUUCGGAUCUGCACUUCCAGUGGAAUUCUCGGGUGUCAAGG: -0.667
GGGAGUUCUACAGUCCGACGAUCUAACUUUAGAGGAGGAUCUGAUGGAUAUGGCAGUUGACGUGGAUUUGGGGAUGGCUAUAAUGGGUAUGGAGGAGGACCUGGAGGUGGCAAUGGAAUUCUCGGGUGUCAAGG: -0.669
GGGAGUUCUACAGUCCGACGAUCAGUCCUGUGCUACACAUCGUAUGUACCGAAUCAAAUUUAAACCCCCAAAUUUUUAAAAAAGUAUUAUGUUACGCCGUUCGGAUCUGCACUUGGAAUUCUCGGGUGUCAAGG: -0.86
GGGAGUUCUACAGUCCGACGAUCCACAGACAACACGCACCCACACAGACACAGAGGGAAGGGGUUGGGAUGGGGACAGGGGGCACAGCAGGGCGGGGUAGGACCCCAGCCCCUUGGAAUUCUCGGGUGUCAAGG: -0.509
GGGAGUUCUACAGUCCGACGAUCUAACUUUAGAGGAGGAUCUGAUGGAUAUGGCAGUGGACGUGGAUUUGGGGAUGGCUAUAAUUGGUAUGGAGGAGGACCUGGAGGUGGCAAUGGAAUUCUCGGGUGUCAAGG: -0.504
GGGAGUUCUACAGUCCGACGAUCUAACUUUAGAGGAGGAUCUGAUGGAUAUGGCAUUGGACGUGGAUUUGGGGAUGGCUAUAAUGGGUAUGGAGGAGGACCUGGAGGUGGCAAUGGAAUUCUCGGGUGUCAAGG: -1.41

Series 3 — method: RNA Bind-n-Seq; form: RNA; medium: in vitro; tested at: 365 nM; baseline: no-protein control; reading: higher = stronger binding; measurement: RBNS enrichment (R)
Target: RNA binding protein fox-1 homolog 2, RRM domain, GST-SBP tag (RBFOX2, Homo sapiens, UniProt O43251-10, residues 100-194)
Notes: natural RNA segment, single round, ends assumed
Residues (chain): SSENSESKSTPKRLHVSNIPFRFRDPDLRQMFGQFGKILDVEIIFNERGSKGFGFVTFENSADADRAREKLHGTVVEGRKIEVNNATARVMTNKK
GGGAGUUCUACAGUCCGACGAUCCCCUCCGUGAUUGAGGGCUCAUAUAGCCGCUGAGGGCAGCCUGCAGCCAGGUGGCCUCACCUGCUGCCCAGAAUUAGGCUGUGCCUUUUCCCAGUCCUUCCCCAUGCCAGUGGAAUUCUCGGGUGCCAA: 0.754
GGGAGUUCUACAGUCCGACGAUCCCUGUAAUUACUGCCUUGCCAUUCUGCCCCUGGACCCUUCUCUCCGGACCAGGGAGGCGUCCCUCCCUAGGAGCCACACAUUAUACUCCAAGUCCCUGCCGGGCUCCGCCUGGAAUUCUCGGGUGCCAA: 0.732
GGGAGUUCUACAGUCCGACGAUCUUACUUCCCCUUCAUGCCUGUCUCCAGUAUCCACCCCAGCUUCUUUCUGAAUGUAAGGGAUUAAGAUAUCAGCUGUAAACUUAACUUUGUCUCCGAAUCUGAGAAUUCGAUGGAAUUCUCGGGUGCCAA: 1.01
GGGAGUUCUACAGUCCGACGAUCAGGGGAGUGGGACUGAGAGACAGUUCCAGAGCCUCCAGGGAAGGCUUCUACUGCUAACUGCUGUAUUCUGUAUAUACUGUGCCACCCUGUGUGGAGUCUGUGAGUGUGCUUGGAAUUCUCGGGUGCCAA: 0.973
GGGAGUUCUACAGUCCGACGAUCUUGAAGAAAAGCUUUCAGAGGGCAUGUAUAGGAAGUGAUUUUGGGGAAGUCGUUUUUUGUUUGUUUUUUGUUUUGUUUUGUUUUGUUUUGUUUUUUUGUUUGUGAACUAGUGGAAUUCUCGGGUGCCAA: 8.6
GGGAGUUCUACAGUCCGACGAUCUUAAGGGUUAAAUCACUUUUGCUUGUGUUUAUUACUGCUUGAGGUUGAGCCUUUUGAGUAUUUAAAAAAUAUAUACCAACAGAACUACUCUCCCAAGGAAAAUAUUGCCAUGGAAUUCUCGGGUGCCAA: 0.437
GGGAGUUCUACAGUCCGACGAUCAGUUUGUCAAAUUACUCUUUGGAAUUGAGCCAAAAUCCUAGAGUUGAGUUUUUAUUCUUCCUUCCUUCCAUACAACAAAACAAGUCCAUAGCCUAUGACCCAAGACUGUUUGGAAUUCUCGGGUGCCAA: 0.705
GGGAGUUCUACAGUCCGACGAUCGGUUGCUGACCUGACCGUGAGUGCUUCAGUAUCUGGUUUGUGUCAGAACCAGACGCCAACUUUGUACUGCAUUUGGGAUCAUAUCUUUCCCCUUCUCUGUCCCCCAUUCUUGGAAUUCUCGGGUGCCAA: 0.219
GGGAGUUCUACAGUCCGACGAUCAAGCAAAAAACAAACAAACAUAGUGGGCCCUCGUCUAGAUCAUGAUGUGCCAGUUUCUGAGACAUCUUUUUAAGGCUCUUACUGCAGCUCCCCUCCCCACCCUCCUCUUCUGGAAUUCUCGGGUGCCAA: 0.265
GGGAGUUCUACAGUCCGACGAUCAAGUCAGUUAAACCAUUUAGUUCAUCAGGAAUAUUUAAAAUAUUCUGCAUGAAUCCGUGUGGCUGUCGUCUUUGUUUACCAUGGCUGCUGCUGUGGGACUGUUUUUUCCUUGGAAUUCUCGGGUGCCAA: 0.251
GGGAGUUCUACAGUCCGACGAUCAAUUAGCAAGGGCUAACAGUACAUCUGAUGAACUAUGGUAACUGAAGAACAUUUUUAAUUCUUUAGGAAUCUGCAAUGAGUGAUUACAUGCUUGUAAUAGGUAGGCAAUUUGGAAUUCUCGGGUGCCAA: 0.37
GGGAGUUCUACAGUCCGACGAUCUUUAAAAAAUAAUUUGAGUGCUUGGAAACUAUUAGCUUUUUAAGUUCCUUCCAAAUAUGUUAGUACCUACCCUUUACUUUUUCCCCAAGACCAUCUCAGGGUGGAGCAUUUGGAAUUCUCGGGUGCCAA: 0.901

Series 4 — method: universal PBM; form: double-stranded DNA, one strand shown; medium: in vitro; tested at: 600 nM; reading: higher = stronger binding; measurement: E-score
Target: Sal-like protein 4, full length isoform A (SALL4, Homo sapiens, UniProt Q9UJQ4, residues 1-1053)
UniProt Q9UJQ4, sequence (whole entry, looked up): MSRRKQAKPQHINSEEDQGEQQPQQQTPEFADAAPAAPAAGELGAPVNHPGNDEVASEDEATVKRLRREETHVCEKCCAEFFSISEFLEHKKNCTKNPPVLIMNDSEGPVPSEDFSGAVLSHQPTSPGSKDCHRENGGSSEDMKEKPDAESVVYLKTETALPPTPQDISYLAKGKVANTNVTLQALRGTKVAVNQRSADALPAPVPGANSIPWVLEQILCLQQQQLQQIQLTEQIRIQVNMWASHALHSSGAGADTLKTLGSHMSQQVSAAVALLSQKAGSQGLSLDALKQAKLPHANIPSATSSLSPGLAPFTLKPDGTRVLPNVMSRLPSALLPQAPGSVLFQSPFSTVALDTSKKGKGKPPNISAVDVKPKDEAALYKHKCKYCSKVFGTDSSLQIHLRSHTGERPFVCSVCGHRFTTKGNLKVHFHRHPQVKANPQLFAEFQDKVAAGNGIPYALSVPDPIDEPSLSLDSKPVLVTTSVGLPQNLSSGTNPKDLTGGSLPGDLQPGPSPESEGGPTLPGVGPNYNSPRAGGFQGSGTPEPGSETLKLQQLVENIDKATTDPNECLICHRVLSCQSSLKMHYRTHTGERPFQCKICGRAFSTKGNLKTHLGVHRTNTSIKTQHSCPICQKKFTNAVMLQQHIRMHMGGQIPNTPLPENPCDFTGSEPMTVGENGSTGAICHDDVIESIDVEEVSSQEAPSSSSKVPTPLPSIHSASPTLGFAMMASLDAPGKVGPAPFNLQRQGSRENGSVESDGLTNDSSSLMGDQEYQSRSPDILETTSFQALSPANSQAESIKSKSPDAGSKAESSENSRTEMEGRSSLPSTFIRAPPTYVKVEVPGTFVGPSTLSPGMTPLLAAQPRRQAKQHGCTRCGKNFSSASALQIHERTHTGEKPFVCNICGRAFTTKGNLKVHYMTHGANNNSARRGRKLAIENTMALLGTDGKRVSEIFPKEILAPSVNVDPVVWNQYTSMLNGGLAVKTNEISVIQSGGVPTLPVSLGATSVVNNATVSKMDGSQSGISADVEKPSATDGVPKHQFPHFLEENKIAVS
Notes: 8-mer, flanks averaged, mean of replicates
ACGCTCGA: -0.112
CCCCCGCA: -0.192
GCCACCCA: -0.341
CCAGCAAG: -0.0686
TCACAGGA: 0.16
GCGTGTAA: -0.0574
CGTCAGGA: -0.0836
CGTCCCAC: -0.164
AAGGTTAG: 0.0682
CAAGGCTC: -0.277
AAACACAA: 0.24
AACGACAG: 0.0303
ATCGAACA: 0.0183
CTGTCACA: 0.00634
AATGGGGT: -0.0251
CGACACAC: 0.152
